# Measured values from different studies.
# Parts stem from different laboratories: compare values within a part only. Changes are numbered by the printed parent chain.

# Set 1 — target: CCNF, cyclin fold, Cln2 fusion (human); method: yeast growth competition, sequencing; sample: yeast; setting: strong parent motif; baseline: not given; direction: higher = stronger binding
# Starting sequence: E2F2 docking peptide (human); LPAKRKLDLEGIG; partner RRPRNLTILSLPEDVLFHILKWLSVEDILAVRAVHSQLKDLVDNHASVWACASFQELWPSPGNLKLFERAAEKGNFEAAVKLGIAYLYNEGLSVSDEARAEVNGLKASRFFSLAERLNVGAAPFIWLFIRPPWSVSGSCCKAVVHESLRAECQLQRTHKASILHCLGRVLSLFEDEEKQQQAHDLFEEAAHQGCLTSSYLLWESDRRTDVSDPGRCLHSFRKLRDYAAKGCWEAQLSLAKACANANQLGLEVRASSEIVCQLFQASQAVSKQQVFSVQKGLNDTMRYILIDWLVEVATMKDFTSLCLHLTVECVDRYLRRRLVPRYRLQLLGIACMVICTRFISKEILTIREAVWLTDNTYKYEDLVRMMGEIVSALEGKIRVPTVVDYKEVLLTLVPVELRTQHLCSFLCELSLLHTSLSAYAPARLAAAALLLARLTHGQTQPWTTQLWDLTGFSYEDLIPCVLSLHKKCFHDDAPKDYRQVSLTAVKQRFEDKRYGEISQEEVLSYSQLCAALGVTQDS
Variant,normalised enrichment score
K6A,3.35
E10A,4.7
G13A,6.74
R5A,0.69
R5K L9F,7.16
I12A,5.07
G11A,5.04

# Set 2 — method: DHFR PCA, deep sequencing; sample: yeast; with: (+)-ABA 710 µM; baseline: wild-type fitted maximum; direction: higher = stronger binding
# Target: ABI1, truncated, D143A, DHFR fusion (Arabidopsis thaliana)
# Setting: methotrexate growth selection, single substitutions
# Starting sequence: PYL1, truncated, DHFR fusion (Arabidopsis thaliana); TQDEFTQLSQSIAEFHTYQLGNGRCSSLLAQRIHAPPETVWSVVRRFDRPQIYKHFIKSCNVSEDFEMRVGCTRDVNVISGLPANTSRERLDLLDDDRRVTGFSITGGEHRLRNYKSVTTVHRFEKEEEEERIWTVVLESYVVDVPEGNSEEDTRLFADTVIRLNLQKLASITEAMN
Variant,relative binding score [%]
Q7Y,104
K126I,107
F103M,89.2
S63T,107
E89D,89.7
R98K,109
I12T,85.9
N85K,107
T173V,97.8
Q7M,110
C72W,89.8
W41G,-28.5
A30M,108
P146I,49.9

# Set 3 — method: RNA Bind-n-Seq; molecule type: RNA; sample: in vitro; tested at: 200 nM; setting: whole 134-nt RNA, ends assumed; with: 150 mM KCl; baseline: input library; direction: higher = stronger binding
# Target: Ras GTPase-activating protein-binding protein 1, full length (G3BP1, Homo sapiens, UniProt Q13283)
# Chain of UniProt Q13283 (whole entry, looked up): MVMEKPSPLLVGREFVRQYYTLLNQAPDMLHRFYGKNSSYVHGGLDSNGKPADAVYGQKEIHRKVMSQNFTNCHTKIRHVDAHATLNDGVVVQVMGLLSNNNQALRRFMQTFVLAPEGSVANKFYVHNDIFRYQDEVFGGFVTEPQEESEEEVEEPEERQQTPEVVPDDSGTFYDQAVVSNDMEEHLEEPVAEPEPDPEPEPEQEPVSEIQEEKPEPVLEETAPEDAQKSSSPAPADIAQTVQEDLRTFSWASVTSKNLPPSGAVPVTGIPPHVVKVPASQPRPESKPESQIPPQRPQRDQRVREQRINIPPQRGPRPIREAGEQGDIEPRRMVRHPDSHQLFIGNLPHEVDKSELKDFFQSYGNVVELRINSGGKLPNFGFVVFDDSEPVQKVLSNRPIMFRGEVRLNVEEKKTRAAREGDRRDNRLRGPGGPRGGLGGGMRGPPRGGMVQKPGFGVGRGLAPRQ
Sequence,log2 enrichment
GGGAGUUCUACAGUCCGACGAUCCCUCAAGUCCUGUGCUACACAUCGUAUGUACCGAAUCGGGUGGGAGGGAGGGAAAGUAUUAUGUUACGCCGUUCGGAUCUGCACUUCCAGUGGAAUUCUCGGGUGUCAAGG,1.34
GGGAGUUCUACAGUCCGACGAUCACCAUGCAGGUGGGCAUCUUUGGGAAGUGGGGCAAGGGGGGGAUAGGGAGUGGGGUAACACUUUGGGAACAGGUGGUCCCAGGUCGUUUCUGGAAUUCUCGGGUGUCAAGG,1.32
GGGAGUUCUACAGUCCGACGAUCUGCCCUCCGUGGAGUCUUUGUUUCGAAGUCCGAUAAAGGAAUCUCUAUUCCGGUCUUCUUCUAAAGAGUCUUUGGUACGAACAUCUUCCAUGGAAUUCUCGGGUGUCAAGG,-1.19
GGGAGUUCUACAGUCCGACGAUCACCAUGCAGGUGGGCAUCUUUGGGAAGUGGGGCAAGGGGGGGAUAGGGAGGGGGGUAACACUUUGGGAACAGGUGGUCCCAGGUCGUUUAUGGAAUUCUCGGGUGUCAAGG,1.38
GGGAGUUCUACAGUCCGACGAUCAAGUCCUGUGCUACACAUCGUAUGUACCGAAUCGGAAAAGGAAAAGGGGAAAAGGGGAAAGUAUUAUGUUACGCCGUUCGGAUCUGCACUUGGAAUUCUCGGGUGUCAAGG,-0.599
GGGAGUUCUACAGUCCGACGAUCCUCAAGUCCUGUGCUACACAUCGUAUGUACCGAAUCGGUUGGGGUUGGGGUUGGAAAGUAUUAUGUUACGCCGUUCGGAUCUGCACUUCCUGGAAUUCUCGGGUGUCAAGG,-0.0254
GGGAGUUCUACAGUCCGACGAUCUCAAGUCCUGUGCUACACAUCGUAUGUACCGAAUCGGAAAGGAAAGGAAAAAGGAAAGUAUUAUGUUACGCCGUUCGGAUCUGCACUUCCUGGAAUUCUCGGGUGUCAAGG,-1.06
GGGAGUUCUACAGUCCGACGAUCAGUCCUGUGCUACACAUCGUAUGUACCGAAUCGGUUUUUUUGGAAAGGAAAAAAAGGAAAGUAUUAUGUUACGCCGUUCGGAUCUGCACUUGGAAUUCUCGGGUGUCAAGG,-1.46
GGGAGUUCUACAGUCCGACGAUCUAACUUUAGAGGAGGAUCUGAUGGAUAUGGCAGUGGACGUGGUUUUGGGGAUGGCUAUAAUGGGUAUGGAGGAGGACCUGGAGGUGGCAAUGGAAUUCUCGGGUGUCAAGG,0.18

# Set 4 — method: protein binding microarray; molecule type: double-stranded DNA, one strand shown; sample: in vitro; tested at: not given; baseline: not given; direction: higher = stronger binding
# Target: Histone acetyltransferase KAT6A, both winged helices, GST fusion (KAT6A, Homo sapiens, UniProt Q92794, residues 1-181)
# Setting: 8-mer, flanks averaged, mean of 2 arrays, mostly near background
# Residues (chain): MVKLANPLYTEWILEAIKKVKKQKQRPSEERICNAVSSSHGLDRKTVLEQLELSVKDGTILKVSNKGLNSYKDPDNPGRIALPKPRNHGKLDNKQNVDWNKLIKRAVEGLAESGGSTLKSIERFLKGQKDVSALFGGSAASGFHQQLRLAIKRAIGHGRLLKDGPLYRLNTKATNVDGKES
Sequence,E-score
ACGTTCCT,-0.0416
AGAATTCC,-0.0566
AGGCTGGG,-0.297
ACACACAT,-0.189
ATGGCTAG,-0.153
CGACTCAG,-0.0627
AGTCTTTA,-0.255
GCATGAGA,-0.0499
ACTACCAC,-0.197
CCGCCGTC,0.271
CCCAATAG,-0.277
CAGTTCTC,0.0323
ATACCGAT,0.0381
GAGACTGA,-0.122
ACAACGCG,0.19
CTGCCTGA,-0.157

# For quick reference, copied from above (set 2):
Variant,relative binding score [%]
E89D,89.7
Q7Y,104
A30M,108
I12T,85.9
